Experimental data collected from several papers.
± marks the error that the study gave.

Cc1cc(Nc2cc3ncccc3c(N[C@@H]3C[C@H]4CC[C@@H](C3)N4CCC#N)n2)n[nH]1  AUC(0-4) (human, plasma; 80 mg, day 14, geometric mean): 3.62 ng·h/mL
CNC(=O)c1ccc(-c2cnc3ncc(Cc4ccc5ncccc5c4)n3n2)cc1F  creatinine increase incidence (all grades) (CTCAE v4.0, any causality; human hepatocellular carcinoma patients; oral, 600 mg twice daily, expansion cohort at RP2D): 9%
O=C(Nc1nc2cccc(-c3ccc(CN4CCS(=O)(=O)CC4)cc3)n2n1)C1CC1  treatment-emergent adverse events (item: infections and infestations; human rheumatoid arthritis patients; oral, 300 mg once daily, 4 weeks, regardless of relatedness): 5%
NCCONC(=O)[C@@H]1CC[C@@H]2CN1C(=O)N2OS(=O)(=O)O  adverse event incidence (item: leading to dose reduction; healthy Chinese men; intravenous, 1 g, treatment-related): 0%
COc1ccc(-c2c(C)[nH]c3cc(OC)c(Cl)cc3c2=O)cc1  kinetic solubility (pH 7.4): < 2 µM
NC(=O)N1c2ccccc2CC(O)c2ccccc21 (stereo not shown)  clearance (population PK modelling; human patients, plasma; weight-scaled, shared estimated exponent): 2.85 L/h
C=CC(=O)Nc1cc(Nc2nccc(-c3cn(C)c4ccccc34)n2)c(OC)cc1N(C)CCN(C)C  incidence of treatment-related AEs (item: white blood cell count decreased; EGFR-mutant MET-altered NSCLC patients; oral, dose not given, AE grade ≥3, all): 3%
C[C@@H](O)[C@H](NC(=O)c1ccc(-c2ccc(Br)cc2)cc1)C(=O)NO  thermodynamic solubility (aqueous buffer; pH 7.4): < 10.7 µM
COc1ccc([C@@H](O)c2cc(-c3ncnc4cc(N5CCOCC5)ccc34)c(F)cc2Cl)nn1  drug-related proctitis incidence (locally advanced rectal cancer patients; 250 mg, added: capecitabine and radiotherapy): 67%
O=C(N[C@H](Cc1c[nH]c2ccccc12)C(=O)Nc1ccncc1)c1ccc(-c2ccc(F)c(Cl)c2)cc1F  concentration (Swiss Webster mouse, female, plasma; oral, 50 mg/kg, 2 h, 20% HPβCD vehicle): 1180 nM
Cn1cc(Nc2nccc(-c3ccc4c(c3)CN(C3COC3)CC[C@H]4NC(=O)c3cn(C(C)(C)C)nn3)n2)cn1  CD4+ T cell count change (human, whole blood; 150 mg twice daily, day 14; baseline: pre-dose baseline): 0.6%
CCC(=O)N(CCC(c1ccc2c(c1)OCO2)c1ccccc1OC)Cc1ccccc1 (stereo not shown)  mean corpuscular haemoglobin (mouse, blood; i.p., 60 mg/kg twice daily, 2 weeks): 15.5 pg
Cc1nc2cccc(OCC(C)(C)C(=O)NC(C)C)c2c(N)c1C(=O)O  mean body weight change (Swiss albino CD-1 mouse; oral, 2000 mg/kg, 36 h): 2.3 ± 0.6 g
C=CC(=O)Nc1cc(Nc2nccc(-c3cn(C)c4ccccc34)n2)c(OC)cc1N(C)CCN(C)C  recovery (storage stability; human dried blood spots; 72 h, -80 °C, medium QC level): 90.1%
COc1cccc(-c2n[nH]c(SCc3ccccn3)n2)c1OC  serum albumin (Sprague-Dawley rats, female; diet, 10 mg/kg/day, day 45, 90-day subchronic study): 3.66 g/dL
C[C@H]1CN(C(=O)CC#N)[C@]12CCN(c1ncnc3[nH]ccc13)C2  IC20 (IL-4 secretion; human whole blood; blood/plasma ratio corrected): 10 ng/mL
Cc1ccc(NC(=O)c2ccc(CN3CCN(C)CC3)cc2)cc1Nc1nccc(-c2cncc(-c3oncc3C)c2)n1  t1/2 (C57BL/6 mice, male, plasma and brain; oral, 100 mg/kg): 2 to 4 h
CC(F)(F)c1nc2nc(CO)cc(Nc3ccc(S(F)(F)(F)(F)F)cc3)n2n1  half-life, metabolite (LC-MS/MS; malaria patients, plasma; oral, 600 mg of parent drug): 108 h
CCN(CC)Cc1ccc2cc(COC(=O)Nc3ccc(C(=O)NO)cc3)ccc2c1  stability relative error (rat plasma; 800 ng/mL, three freeze-thaw cycles; baseline: nominal concentration): 90.3%
C[C@@H]1COCCN1c1cc(C2([S@](C)(=N)=O)CC2)nc(-c2cc[nH]c3nccc2-3)n1  Fatigue incidence (Japanese advanced solid tumour patients; oral, 160 mg twice daily, CTCAE grade ≥3): 0%
CCCOc1ccc(NC(=O)CN2CCN(C)CC2)cc1-c1nc(CC)c(CC)c(=O)[nH]1  AUEC(0-4 h) systolic BP (healthy Chinese men; 10 mg, supine or semi-supine, added: alcohol 0.5 g/kg): -12.6 ± 23.2 h·mmHg
C1=C/COCc2cc(ccc2OCCN2CCCC2)Nc2nccc(n2)-c2cccc(c2)COC/1  stability relative error (rat plasma; 1200 ng/mL, 1 months, -20 °C, long-term storage; baseline: nominal concentration): 0.51%
Cc1nc(-c2ccc(OCC(C)C)c(C#N)c2)sc1C(=O)O  geometric mean ratio Cmax (human, plasma; oral, 10 mg, added: verinurad 2.5 mg; baseline: test over reference): 89.7
CN1CC[C@@H](NC(=O)Nc2ccc(C#N)cc2)C[C@@H]1c1nc2ccccc2[nH]1  intercompartmental clearance Q/F (human cancer patients, plasma; oral, population PK base model): 2.13 L/h
N#Cc1ccc2c(c1)[C@H]1CCCN(C(=O)c3ccc4[nH]cnc4c3)[C@H]1C2  minimum ACTH level (human; 20 mg, day 15): 3.5 pmol/L
CCCC[C@H]1CC[C@H](c2ccc(C#N)cc2)CC1  median placental accumulation (Sprague-Dawley rat, female, placenta; 1000 ng/mL in perfusate, 50 (unit not given), middle dose, mixture of 21 LCMs): 5.66 ng/g
COc1ccc2c(=O)n(C)c(-c3ccccc3)nc2c1  tissue/plasma ratio (Sprague-Dawley rat, male, spleen; oral, 30 mg/kg, 0.5 h; baseline: spleen over plasma): 4.22
N#CC1CCN(c2nc(-c3ccccn3)nc3ccccc23)C1 (stereo not shown)  kinetic solubility (Japanese Pharmacopoeia disintegration test solution 2; pH 6.8): 0.036 mg/mL
CC(C)(C(=O)N1CCOc2c(C#N)cncc2C1)C(F)F  subjects with adverse event (item: Gastrointestinal disorders; human; oral, 20 mg once daily, 14 days, multiple ascending dose): 0%
CC(C)N(CCCCOCC(=O)NS(C)(=O)=O)c1cnc(-c2ccccc2)c(-c2ccccc2)n1  k12 rate constant (population PK model; healthy human, plasma; oral): 0.07 h⁻¹
CNCc1ccc(-c2[nH]c3cc(F)cc4c3c2CCNC4=O)cc1  dyspnoea incidence (human patients; oral, 840 mg twice daily, all grades): 33.3%
CCc1cc(C(=O)NC)c2nccc(N3CCc4c(cc(Cn5ccnc5)cc4-c4cn(C)nc4C(F)(F)F)C3=O)c2c1  body weight (Sprague Dawley rat; oral, 100 mg/kg twice daily, day 2, 7-day toxicology study): 219 ± 5.5 g
CCn1c(=O)c(-c2cc(NC(=O)Nc3ccccc3)c(F)cc2Br)cc2cnc(NC)cc21  participants with grade ≥ 3 TEAE (item: amylase increased; human, severe hepatic impairment; oral, 50 mg single dose): 0%
O=C(c1cc(Cc2n[nH]c(=O)c3ccccc23)ccc1F)N1CCN(C(=O)C2CC2)CC1  clearance change (human; oral, dose not given, reverse dosing order): 28%
CCCC1CCC(c2ccc(-c3ccc(F)c(F)c3)cc2)CC1 (stereo not shown)  median placental accumulation (Sprague-Dawley rat, female, placenta; 5000 ng/mL in perfusate, 50 (unit not given), high dose, mixture of 21 LCMs): 203 ng/g
CCn1c(SCC(=O)Nc2ccccc2OC)nnc1-c1c[nH]c2ccccc12  thermodynamic solubility (aqueous buffer; pH 7.4): < 5.36 µM
CN(CCC(=O)O)C(=O)c1ccc2c(c1)CC[C@@H]1[C@@H]2CC[C@]2(C)C(c3cncc(F)c3)=CC[C@@H]12  total bilirubin change (premenopausal women, endometriosis pain, serum; 60 mg twice daily, visit 4, median; baseline: baseline): 0.6 mg/dL
CC(C)(C)n1ncc(OCc2ccc(COCC[18F])cc2)c(Cl)c1=O  time to maximum uptake (dynamic PET; healthy C57BL/6J mice, myocardium; intravenous, isoflurane anaesthesia): 6.5 min
CN1CCC[C@H](CN2c3ccccc3Sc3ccccc32)C1.Cl  Tmax (fasted female ICR mouse, skin; oral, 16 mg/kg): 2 h
CNC(=O)c1ccc(-c2cnc3ncc(Cc4ccc5ncccc5c4)n3n2)cc1F  subjects with adverse events (item: adverse events of grade 1 or higher; healthy human subjects; oral, 400 mg, induction cohort, all-causality, added: rifampicin 600 mg/day): 42.3%
CCCCC/C=C\C/C=C\CCCCCCCC(=O)O.Cc1cc(/C=C/C#N)cc(C)c1Nc1ccnc(Nc2ccc(C#N)cc2)n1  kinetic solubility (Labrasol ALF): ~150 mg/mL
CCN1/C(=C/C(C)=O)Sc2ccc(F)cc21  heart rate (cynomolgus monkey; oral, 100 mg/kg, 1 h post-dose): 121 ± 19 beats/min
C=CC(=O)NC1CCN(c2ncc3ncnc(Nc4ccc(Oc5ccc6c(c5)ncn6C)c(C)c4)c3n2)CC1  adverse events incidence (item: body temperature increased; human male; oral, dose not given, CTCAE on-treatment AEs): 0%
C=CCN1CC(=O)N2[C@@H](Cc3ccc(O)cc3F)C(=O)N(Cc3cccc(N4CC(N5CCN(CC)CC5)C4)n3)C[C@@H]2N1C(=O)NCc1ccccc1  treatment-related AST increased (advanced solid tumour patients; oral, 120 mg twice daily, any grade, dose-escalation): 25%
CC(C)C[C@H](NC(=O)[C@@H](Cc1c[nH]c2ccccc12)NC(=O)[C@H](Cc1ccc(O)cc1)NC(=O)[C@H](CO)NC(=O)[C@H](Cc1c[nH]c2ccccc12)NC(=O)[C@H](Cc1c[nH]cn1)NC(=O)[C@@H]1CCC(=O)N1)C(=O)N[C@@H](CCCNC(=N)N)C(=O)N1CCC[C@H]1C(=O)NCC(N)=O  patients, grade ≥3 TEAEs (Chinese CPP children, boys; intramuscular, 22.5 mg, 12 months, day 1, month 6): 0%
c1csc(CNc2cc[nH]n2)c1  tail DNA (alkaline comet; Hsd:ICR(CD-1) mice, female, liver; oral, 250 mg/kg/day, 3 days): 5.13%
C=CC(=O)N(C)CCOc1c(N)ncnc1-c1cc(F)cc(NC(=O)c2ccc(C3CC3)cc2F)c1C  AUC (human, plasma; oral, 5 mg single dose): 2.77 ng·h/mL
CCOc1c([C@H](C)n2nc(C)c3c(N)ncnc32)cc(Cl)c(F)c1[C@@H]1CNC(=O)C1  Tmax median (patients, monotherapy; oral, 10 mg once daily, cycle 1 day 1): 1 h
CSc1ccccc1C(=O)NCCn1cc(C(=O)NCc2cccc(C)n2)c(=O)c2cc3c(cc21)OC(F)(F)O3  Cmax (Sprague-Dawley rat, male, plasma; intravenous, 20 mg/kg of parent drug): 1690 ± 166 ng/mL
CCn1cc(C(=O)N2CCOCC2)c(=O)c2cc(NC3Cc4ccccc4C3)cnc21  half-life (human, fasted; oral suspension, 5 mg single dose, arithmetic mean): 2.43 h
O=C(O)CCC(=O)O.[2H]C([2H])([2H])Oc1cc(C)c2[nH]ccc2c1CN1CC[C@@H](C2CC2)C[C@H]1c1ccc(C(=O)O)cc1  Tmax (human, plasma; 50 mg twice daily, day 10, multiple ascending dose, median): 2 h
CC1(C)CCC(CN2CCN(c3ccc(C(=O)NS(=O)(=O)c4ccc(NCC5CCOCC5)c([N+](=O)[O-])c4)c(Oc4cnc5[nH]ccc5c4)c3)CC2)=C(c2ccc(Cl)cc2)C1  apparent clearance (CL/F) (final population PK model; AML patients): 452 L/day
Cc1ccc(Sc2ccccc2N2CCNCC2)c(C)c1  participants with TEAE (item: hot flush; healthy adult women; oral, 10 mg daily, 12 days): 0%
CCCCOc1ccc([C@H]2CC[C@H](CCC)CC2)c(F)c1F  median fetal accumulation (rat, fetus; 10 ng/mL in perfusate, low dose, mixture of 21 LCMs): 0.615 ng/g
COc1ccc2c(c1)CN(C(=O)CCN1CCC(Cc3ccccc3)CC1)CC[S@@+]2[O-]  QTc interval (telemetry; conscious male beagle dogs; intravenous, 4 mg/kg, 1 h): 257 ± 4 ms
